Experimental data pooled from the literature.
Numbered parts are unrelated; each lists some results of a single study.

Set 1
Target: Histone acetyltransferase KAT6A, both winged helices, GST fusion (KAT6A, Homo sapiens, UniProt Q92794, residues 1-181)
Technique: protein binding microarray
Molecule type: double-stranded DNA, one strand shown
Medium: in vitro
Tested at: not given
Setting: 8-mer, flanks averaged, mean of 2 arrays, mostly near background
Reference: not given
Reading: higher = stronger binding
Construct (chain): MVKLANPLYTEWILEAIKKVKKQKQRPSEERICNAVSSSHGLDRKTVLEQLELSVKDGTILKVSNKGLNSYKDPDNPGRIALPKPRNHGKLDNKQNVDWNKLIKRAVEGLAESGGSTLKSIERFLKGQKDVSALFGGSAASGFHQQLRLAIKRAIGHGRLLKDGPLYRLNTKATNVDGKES
With `GTCAAAAC` the E-score was 0.143.
`GACGCTAA` has an E-score of 0.162.
For `CTCTCGGC`, the E-score was 0.0998.
`CATGCGCA` has an E-score of 0.251.
`TATGACCA` gave an E-score of -0.0777.
`TATATTAA` gave an E-score of 0.00681.
With `AATATATC` the E-score was -0.0799.

Set 2
Target: Interferon regulatory factor 7, full length, phosphomimetic (IRF7, Homo sapiens, UniProt Q92985, residues 1-503, S471D/S472D/S475D/S476D/S477D/S483D/S484D/S487D)
Technique: protein-binding microarray
Molecule type: double-stranded DNA, one strand shown
Medium: in vitro
Tested at: 2200 nM top
Setting: 60-bp whole probe
Added: salmon DNA 0.4 mg/ml
Reference: random background probes
Reading: higher = stronger binding
Constant ends, left off below: GCCTAGCAC … GTCTTGATTCGCTTGACGCTGCTG
Residues (chain): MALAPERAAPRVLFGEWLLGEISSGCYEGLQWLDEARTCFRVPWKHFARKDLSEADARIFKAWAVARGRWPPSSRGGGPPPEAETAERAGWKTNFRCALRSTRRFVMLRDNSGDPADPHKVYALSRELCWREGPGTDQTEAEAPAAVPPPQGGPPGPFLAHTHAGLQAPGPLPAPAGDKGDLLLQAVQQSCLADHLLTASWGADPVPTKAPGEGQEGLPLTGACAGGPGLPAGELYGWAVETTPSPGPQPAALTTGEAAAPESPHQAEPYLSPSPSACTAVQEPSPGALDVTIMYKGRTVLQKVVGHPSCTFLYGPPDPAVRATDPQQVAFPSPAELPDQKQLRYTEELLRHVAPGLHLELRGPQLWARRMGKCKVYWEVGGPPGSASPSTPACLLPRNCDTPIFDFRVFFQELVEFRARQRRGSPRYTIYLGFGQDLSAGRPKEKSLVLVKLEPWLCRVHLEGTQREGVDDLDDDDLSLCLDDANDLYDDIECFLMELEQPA
For `TCATAACTCATTTTCGTACTGTGCTAG`, “fitted relative affinity” read 3.51 z-score.
`GACAGTATCGACTATCGGGACGTGCTA` — result for “fitted relative affinity”: -0.0708 z-score.
For `GACGGTCTCGGTCTCGGGAGGTGCTAG`, “fitted relative affinity” read 0.00468 z-score.
`TTTGTCATCTATAATGGATATGTGCTA`: “fitted relative affinity” 0.604 z-score.
Under “fitted relative affinity”, `GACGGTTTCCTTATCATGACGTGCTAG` is recorded as 2.48 z-score.

Set 3
Target: Ras GTPase-activating protein-binding protein 1, C-terminal RGG region (G3BP1, Homo sapiens, UniProt Q13283)
Chain of UniProt Q13283 (whole entry, looked up): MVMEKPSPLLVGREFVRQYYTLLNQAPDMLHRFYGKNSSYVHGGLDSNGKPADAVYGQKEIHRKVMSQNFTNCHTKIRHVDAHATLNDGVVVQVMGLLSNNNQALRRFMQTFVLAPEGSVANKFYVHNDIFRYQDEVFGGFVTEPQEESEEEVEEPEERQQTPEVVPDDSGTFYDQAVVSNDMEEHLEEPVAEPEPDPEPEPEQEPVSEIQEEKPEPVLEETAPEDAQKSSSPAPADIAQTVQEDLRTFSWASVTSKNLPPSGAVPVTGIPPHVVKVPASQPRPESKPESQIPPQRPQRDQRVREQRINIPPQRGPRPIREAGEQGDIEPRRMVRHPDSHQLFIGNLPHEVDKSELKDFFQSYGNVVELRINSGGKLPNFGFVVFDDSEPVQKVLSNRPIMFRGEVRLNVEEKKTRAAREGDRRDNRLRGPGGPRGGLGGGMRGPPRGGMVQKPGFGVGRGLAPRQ
Technique: RNA Bind-n-Seq
Molecule type: RNA
Medium: in vitro
Tested at: 1 µM
Setting: whole 134-nt RNA, ends assumed
Added: 150 mM KCl
Reference: input library
Reading: higher = stronger binding
`GGGAGUUCUACAGUCCGACGAUCUCAAGUCCUGUGCUACACAUCGUAUGUACCGAAUCGGGAAAAAGGGUGGGUGGGAAAGUAUUAUGUUACGCCGUUCGGAUCUGCACUUCCUGGAAUUCUCGGGUGUCAAGG` gave a log2 enrichment of 1.47.
With `GGGAGUUCUACAGUCCGACGAUCCCUCAAGUCCUGUGCUACACAUCGUAUGUACCGAAUCGGCCGGGCCGGCCGGAAAGUAUUAUGUUACGCCGUUCGGAUCUGCACUUCCAGUGGAAUUCUCGGGUGUCAAGG` the log2 enrichment was -1.22.
With `GGGAGUUCUACAGUCCGACGAUCGUCCUGUGCUACACAUCGUAUGUACCGAAUCGGGGUUUUUGGGGAGGGGUUUUUGGGGAAAGUAUUAUGUUACGCCGUUCGGAUCUGCACUGGAAUUCUCGGGUGUCAAGG` the log2 enrichment was 1.93.

Single results of other studies
`PhoQ, residues 284 288 289 292 302 303 GASLAW` gave a fold induction of 9.34 (PhoP, residues 12 14 15 18 19 NHFIF (Escherichia coli, UniProt P23836); Sort-seq, refers to: YFP reporter; E. coli; PhoQ-PhoP variant library, added: 10 µM Mg2+; reference: high Mg2+ state, higher = stronger signaling).

Repeated from above (set 1):
`TATGACCA` gave an E-score of -0.0777.
`TATATTAA` gave an E-score of 0.00681.
